Assay results pooled from the literature.
Parts stem from different laboratories: compare values within a part only.

Study 1 — method: protein binding microarray; molecule type: double-stranded DNA, one strand shown; matrix: in vitro; tested at: not given; baseline: not given; direction: higher = stronger binding
Target: Histone acetyltransferase KAT6A, winged helix 2, GST fusion (KAT6A, Homo sapiens, UniProt Q92794, residues 85-181)
Setting: 8-mer, flanks averaged, mean of 2 arrays, mostly near background
Construct (chain): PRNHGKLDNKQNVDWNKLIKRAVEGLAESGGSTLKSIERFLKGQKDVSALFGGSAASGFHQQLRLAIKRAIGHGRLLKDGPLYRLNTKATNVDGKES
Oligonucleotide	E-score
GAGCGATC	-0.0887
CATACTGG	0.0233
CTCAGCTC	-0.11
TGTTGGAA	0.0314
CCTTCAAG	-0.0181
CATTCTCG	-0.136
ATGTACAA	-0.122
CCCGATCG	0.199
CCCACTGC	0.0771
CCGAGTTA	-0.065
ATGCTTCC	0.0453
CGGACTGA	-0.0514
CAGTTTAA	-0.0899
AATACCGC	0.144
AAGCTCTC	0.0671
CACGCTGC	-0.0295
GTATACAC	0.0873
CAGGGAGG	0.13
CCCTACGG	0.0713
AATCTAAG	0.0254

Study 2 — method: RNA Bind-n-Seq; molecule type: RNA; matrix: in vitro; tested at: 1 µM; setting: whole 134-nt RNA, ends assumed; with: 150 mM KCl; baseline: input library; direction: higher = stronger binding
Target: Ras GTPase-activating protein-binding protein 1, C-terminal RGG region (G3BP1, Homo sapiens, UniProt Q13283)
UniProt Q13283, sequence (whole entry, looked up): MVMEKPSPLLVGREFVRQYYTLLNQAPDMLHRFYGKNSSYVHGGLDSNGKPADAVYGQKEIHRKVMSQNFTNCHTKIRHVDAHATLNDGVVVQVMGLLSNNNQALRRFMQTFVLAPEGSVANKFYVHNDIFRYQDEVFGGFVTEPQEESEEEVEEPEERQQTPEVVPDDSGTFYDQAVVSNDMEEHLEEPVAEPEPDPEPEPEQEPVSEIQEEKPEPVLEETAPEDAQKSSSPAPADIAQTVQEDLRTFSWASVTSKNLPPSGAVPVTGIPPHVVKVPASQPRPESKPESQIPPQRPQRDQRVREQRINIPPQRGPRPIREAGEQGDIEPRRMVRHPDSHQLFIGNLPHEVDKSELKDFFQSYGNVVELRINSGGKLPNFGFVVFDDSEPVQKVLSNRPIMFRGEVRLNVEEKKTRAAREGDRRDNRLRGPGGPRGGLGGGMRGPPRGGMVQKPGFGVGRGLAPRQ
All sequences stand within: GGGAGUUCUACAGUCCGACGAUC … UGGAAUUCUCGGGUGUCAAGG
Oligonucleotide	log2 enrichment
AAGUCCUGUGCUACACAUCGUAUGUACCGAAUCGGGAAAAAGGGUGGGUUUUUGGGAAAGUAUUAUGUUACGCCGUUCGGAUCUGCACUU	1.31
GCAGGAAGUAAAAACAAAUGGAAAUGCUUCGGAUAGUGGCAGGGGUGGCGGUUGCUAAGGAAAGGGUGGGAUGGGAGUGGGUAAAGAGUU	1.53
UAACUUUCGAGGAGGAUCUGAUGGAUAUGGCAGUGGACGUGGAUUUGGGGAUGGCUAUAAUGGGUAUGGAGGAGGACCUGGAGGUGGCAA	-1.27
CUCAAGUCCUGUGCUACACAUCGUAUGUACCGAAUCGGGGCCGGCCGGCCGGGAAAGUAUUAUGUUACGCCGUUCGGAUCUGCACUUCCA	-0.884
AAGUCCUGUGCUACACAUCGUAUGUACCGAAUCGGGAGGGUUUUUUUGGGUUUGGGAAAGUAUUAUGUUACGCCGUUCGGAUCUGCACUU	0.0871
AAGUCCUGUGCUACACAUCGUAUGUACCGAAUCGGUUUUUGGUUUUUGGUUUUUGGAAAGUAUUAUGUUACGCCGUUCGGAUCUGCACUU	-1.83
AGUCCUGUGCUACACAUCGUAUGUACCGAAUCGGGGUUUGGGGAAAGGGGAAAGGGGAAAGUAUUAUGUUACGCCGUUCGGAUCUGCACU	4.1
UGUUGGGCUUCGAUCCCAGGUGGAUGAUGAUGCCUUCCUACAUGGACCCACGUAUCACGCCCACUCGGACCCCGGUGGACUUCUACCCCU	0.138
AAGUCCUGUGCUACACAUCGUAUGUACCGAAUCGGAAAAAAAGGAGGAAAAAAAGGAAAGUAUUAUGUUACGCCGUUCGGAUCUGCACUU	-1.92
CCUGUGCUACACAUCGUAUGUACCGAAUCGGGGAGGGGUUUUUUUGGGGUUUUUUUGGGGAAAGUAUUAUGUUACGCCGUUCGGAUCUGC	0.0662
GCAGGAAGUAAAAACAAAUGGAAAUGCUUCGGAUAGUGGCCGGGGUGGGGGUUGCUAAGGAAAGGGUGGGAUGGGAGUGGGUAAAGAGUU	1.5
GCAGGAAGCAAAAACAAAUGGAAAUGCUUCGGAUAGUGGCAGGGGUGGGGGUUGCUAAGGAAAGGGUGGGAUGGGAGUGGGUAAAGAGUU	1.76
UCCUGUGCUACACAUCGUAUGUACCGAAUCGGCCCCCCGGGGCCCCCCGGGCCCCCCGGAAAGUAUUAUGUUACGCCGUUCGGAUCUGCA	-1.25
AAGUCCUGUGCUACACAUCGUAUGUACCGAAUCGGGGUUUUUGGGGUGGGGAGGGGAAAGUAUUAUGUUACGCCGUUCGGAUCUGCACUU	2.14

Study 3 — method: protein-binding microarray; molecule type: double-stranded DNA, one strand shown; matrix: in vitro; tested at: 2540 nM top; setting: 60-bp whole probe; with: salmon DNA 0.4 mg/ml; baseline: random background probes; direction: higher = stronger binding; all sequences stand within: GCCTAGCAC … GTCTTGATTCGCTTGACGCTGCTG
Target: Interferon regulatory factor 3, full length, phosphomimetic (IRF3, Homo sapiens, UniProt Q14653, residues 1-427, S386D/S396D/S398D/S402D/T404D/S405D)
Construct (chain): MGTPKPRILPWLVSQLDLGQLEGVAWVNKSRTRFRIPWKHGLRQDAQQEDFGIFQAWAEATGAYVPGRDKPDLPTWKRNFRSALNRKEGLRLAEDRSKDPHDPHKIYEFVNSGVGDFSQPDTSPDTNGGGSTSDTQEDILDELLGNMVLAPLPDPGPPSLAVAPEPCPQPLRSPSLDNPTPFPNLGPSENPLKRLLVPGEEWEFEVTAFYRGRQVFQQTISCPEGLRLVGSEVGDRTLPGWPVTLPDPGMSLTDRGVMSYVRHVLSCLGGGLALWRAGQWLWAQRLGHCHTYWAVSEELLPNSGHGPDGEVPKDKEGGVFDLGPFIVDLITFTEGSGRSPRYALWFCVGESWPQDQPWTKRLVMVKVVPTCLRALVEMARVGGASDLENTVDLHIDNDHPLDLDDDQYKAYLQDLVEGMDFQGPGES
Oligonucleotide	fitted relative affinity [z-score]
TTAGGAATGGACACTGGGTTAGTGCTA	-0.417
TCAAGCCTCTGCATTCCCACTGTGCTA	-0.781
TCATACTTCACTCTCTGACTGTGCTAG	0.535
TTAGATATCAGTTTCGATTGGTGCTAG	3.97
AGGCTTTTTTTTTTTTTTTTGTGCTAG	0.297
GACGGTTTCGGGTCTCGGGACGTGCTA	6.02
TTAGGACTGCTTCGCCTTTAGTGCTAG	-0.479
GACGATTTCAGTATCGAGAAGTGCTAG	2.23
GACGGACTGGGGCTCGGGACGTGCTAG	-1.12
TCATGTTTGGCCCTGAAACTGTGCTAG	-0.331
GACGGTATCGAATATCGGGACGTGCTA	1.16
GACGGTTCCCTTTTCCGGACGTGCTAG	6.56
TCAGTTTCTCCTTTCGGACTGTGCTAG	3.56
GACGGACTGCTTTACCTGACGTGCTAG	-0.14
TCATTTCCCAAGTTTATAACTGTGCTA	2.46
TTATCAATCATTTTAGTTTTGTGCTAG	1.16
TTAGGACTGGACACTGGGTAAGTGCTA	-0.542

Study 4 — method: RNA Bind-n-Seq; molecule type: RNA; matrix: in vitro; tested at: 365 nM; baseline: no-protein control; direction: higher = stronger binding
Target: RNA binding protein fox-1 homolog 2, RRM domain, GST-SBP tag (RBFOX2, Homo sapiens, UniProt O43251-10, residues 100-194)
Setting: natural RNA segment, single round, ends assumed
All sequences stand within: GGGAGUUCUACAGUCCGACGAUC … UGGAAUUCUCGGGUGCCAA
Construct (chain): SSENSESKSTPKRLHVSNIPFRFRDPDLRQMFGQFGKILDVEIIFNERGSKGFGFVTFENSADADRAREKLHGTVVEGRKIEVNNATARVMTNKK
Oligonucleotide	RBNS enrichment (R)
CCUCCCCUUGAGUGAUGGAAGGUGCCACUCACCUAGGCCAAAGCCCACAUCCUCUUGGGGACUCAGAGCACUCCUCUCCUUCCACUCCCAAAGACACGGGUAUUCCAGAC	0.251
GCUUUGGGGUGUGGCCUGUGACUGUGUUUCCCAGGUGGGGACCAGAAGAUGUCUGAGGUCCUCCUGAGCCCUGAAAUCUUGAUAAUCAGGAAUACCCAGGGUGGUGGGAC	0.314
AAAACUUCUUUUAAACCUCACCUUUGUGGGGUUUUUGGAGAAGGUUAUCAAAAAUUUCAUGGAAGGACCACAUUUUAUAUUUAUUGUGCUUCGAGUGACUGACCCCAGUG	0.36
CCCCUCCCCCAGCCCCCAGAAACUCAGUUCAGCUCUCAGAGAAGCAGGUGAAUCAUAAAGUCAGUGAAGACGCCGCCCUCUGAUUCUCCCCACUGUAGGGGGAAGGAAGG	0.52
CGUCGUGAGUGUCAAAUGUGUCCCACUCCUCCCUAGAAGUUAUGAACACUACACACAGUCAAUAAAGCGAAUGGACCUUGCUGAGUCUGCUGGCCCAGCCCCUGAACCCA	0.314
CAGGCUUUUAUUUCCAGGUAACCUAUCUGUGGAAGACCUAAUUCUGAAUAGAGUAAUAGAUAUUACUGGAAACUGAUUUGUUUUUUUUUUCCUAUUAUACUCUGCUUUAU	0.354
UAUUGAUCACAUUUUGAUUUUUUUCUCUCCACAUCAGGAUAGUUUACUGAAGCACAAUCUCUUAUACUAGUGGGACAAAAGGGAGAAAAAGGAAGCAAGAUAAAUGGGUA	0.404
AUGGGUCCAAAGCUCAGUACUGGGGAGCCUGGGGUCCCCACUUGAAUGUGCAGCAGGAGGUCCUUUUCCUUCUCUACCUUCCUCUUCUCCCUUUCCCUGGGGCCAGAUCA	0.33
AAUGACUUGGAAGAACUGGGGCACAGCCAGUCCCAGACACUGGUGGAGGCUGCAGUGACUUUUUUUGGCUCAAGAUCCACAAGCAUUAGAGUAGACUGGGCCAACAAGUC	0.613
UAUGGGCCAAACAAAGGCCAUGGAUAACCCUACCCGCUUUAUGUCAUUACCCAUUGGGAAACACAAUGGCUACUUCUGUUAGGGUACAUUGACCUUGGUCAAGCAUCUUA	0.268
UAUGUUUCCCCCCUUUUCCGAUAGAACUAUUGGGGUGAGGAUAAGGGUGGGGGGAAAUCACUGUUUGUUUUUAAAAGCAAAUCUUUUGUAAACAGAAUAAAAGUUCCUCU	0.479
UAGACAGUGUUUGAUUAUUUUCCUUGUGUAAGUUUGAUUUAAAACGUUGGAAAUGUGUGCUUUUUAGUGUUUACUAAAGUGAUAAGAAAAUAAAGCAUUCAAUACACUAU	0.791

For quick reference, copied from above (study 1):
Oligonucleotide	E-score
CCCGATCG	0.199
CCCACTGC	0.0771
CCGAGTTA	-0.065
ATGCTTCC	0.0453
